# Measurements pooled from the literature.
# Compare with care: the assays were run in different laboratories. ± gives the spread as reported.
# Organism: Salmonella typhimurium
SMILES,test,system,conditions,scale,endpoint,value
O=[N+]([O-])c1ccc(N2CCN(CCC(O)c3ccc(F)cc3)CC2)c(C(F)(F)F)c1 (stereo not drawn),"genotoxicity, SOS/umu test",TA1535/pSK1002,"0.125 mg/mL, 4 h, without S9, lower range",,induction factor,0.2
Cc1cc(C(=O)NC(C)(C)COc2cccc3c2C(N)=NS(=O)(=O)N3)cc(C)n1,"Ames test, initial",TA1535,"1500 µg/plate, together with: rat liver S9",relative to: solvent control,revertant ratio,1.2
COc1cccc(-c2n[nH]c(SCc3ccccn3)n2)c1OC,"Ames test, preincubation",TA1537,"0.50 mg/plate, with rat liver S9",,revertant colonies per plate,10
CC(C)N(C)N=O,"mutagenicity, Ames plate incorporation",TA1537,"5000 µg/plate, 3 d, without S9, methanol",,revertant colonies per plate,13 ± 3
O=[N+]([O-])c1ccc(N2CCC(NCCC(O)c3ccc(F)c4ccccc34)CC2)c(C(F)(F)F)c1 (stereo not drawn),"genotoxicity, SOS/umu test",TA1535/pSK1002,"0.063 mg/mL, 4 h, with S9, full range",,induction factor,0.72
O=NN1CCN(C2CCCC2)CC1,"mutagenicity, Ames plate incorporation",TA98,"5000 µg/plate, 3 d, without S9, methanol",,revertant colonies per plate,21 ± 4
CC(=O)N1CCC(C(=O)N2CCN3C(=O)c4cc(-c5ccccc5)ccc4NC(=O)C3C2)CC1 (stereo not drawn),,TA100,"50 µg/plate, with rat liver S9",,revertants per plate,108
O=[N+]([O-])c1ccc(NC2CCNCC2)c(C(F)(F)F)c1,"genotoxicity, SOS/umu test",TA1535/pSK1002,"0.125 mg/mL, 4 h, without S9, full range",,induction factor,0.8
CNC(=O)c1c(N(C)N=O)ncn1C,"mutagenicity, Ames plate incorporation",TA100,"50 µg/plate, without S9, methanol",,revertant colonies per plate,157 ± 14

# Repeated from above:
SMILES,test,system,conditions,scale,endpoint,value
CC(=O)N1CCC(C(=O)N2CCN3C(=O)c4cc(-c5ccccc5)ccc4NC(=O)C3C2)CC1 (stereo not drawn),,TA100,"50 µg/plate, with rat liver S9",,revertants per plate,108
